# Experimental data from different studies.
# Parts stem from different laboratories: compare values within a part only. Substitutions count along the parent as printed.

# Sample 1
# Target: Histone acetyltransferase KAT6A, winged helix 1, GST fusion (KAT6A, Homo sapiens, UniProt Q92794, residues 1-85)
# Method: protein binding microarray
# Form: double-stranded DNA, one strand shown
# Matrix: in vitro
# Tested at: not given
# Notes: 8-mer, flanks averaged, mean of 2 arrays, mostly near background
# Reference: not given
# Direction: higher = stronger binding
# Residues (chain): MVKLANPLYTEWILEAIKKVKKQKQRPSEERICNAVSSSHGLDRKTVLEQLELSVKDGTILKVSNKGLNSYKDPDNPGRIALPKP
Sequence,E-score
GGCTTTAC,0.162
ATTTAAAC,-0.226
TCCGTCCA,0.0622
ATACTCTC,-0.224
ACAGAACA,-0.12
ACGTGATG,-0.189
ACTACCTC,-0.167
AAGTTCTA,-0.0829
ATCAATCG,-0.0644
AGAAAGCG,0.227
AGAACAAC,-0.108
AAAAAAGG,-0.0894
AGGTGATA,-0.209
GAATCTCA,-0.198
AAAACACC,-0.0417
AGAGTTTG,-0.15
AATAGGAG,-0.105
AACGCGAG,0.172
ATAGTCAC,-0.115
CTCCTAAC,-0.117
GCCAAAAA,-0.18
CAGATCAG,-0.0741

# Sample 2
# Target: Interferon regulatory factor 7, full length, phosphomimetic (IRF7, Homo sapiens, UniProt Q92985, residues 1-503, S101K/S471D/S472D/S475D/S476D/S477D/S483D/S484D/S487D)
# Method: protein-binding microarray
# Form: double-stranded DNA, one strand shown
# Matrix: in vitro
# Tested at: 250 nM
# Notes: 60-bp whole probe
# Added: salmon DNA 0.4 mg/ml
# Reference: random background probes
# Direction: higher = stronger binding
# Constant ends, left off below: GCCTAGCAC … GTCTTGATTCGCTTGACGCTGCTG
# Construct (chain): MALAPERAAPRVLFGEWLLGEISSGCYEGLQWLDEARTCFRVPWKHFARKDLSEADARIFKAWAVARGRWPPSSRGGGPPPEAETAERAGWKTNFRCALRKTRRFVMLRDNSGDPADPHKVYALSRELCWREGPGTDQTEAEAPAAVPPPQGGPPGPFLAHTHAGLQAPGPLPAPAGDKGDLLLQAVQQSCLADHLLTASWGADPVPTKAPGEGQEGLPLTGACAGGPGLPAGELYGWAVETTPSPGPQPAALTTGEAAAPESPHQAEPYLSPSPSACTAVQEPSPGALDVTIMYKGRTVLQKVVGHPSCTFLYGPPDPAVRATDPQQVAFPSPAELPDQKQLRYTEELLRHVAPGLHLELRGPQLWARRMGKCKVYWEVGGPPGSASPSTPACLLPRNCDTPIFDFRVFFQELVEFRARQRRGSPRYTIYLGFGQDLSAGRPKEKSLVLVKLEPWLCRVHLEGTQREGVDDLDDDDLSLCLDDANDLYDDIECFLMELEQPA
Sequence,log fluorescence [z-score]
TTATGACTGGACTATCGGTTAGTGCTA,-0.151
GACGGTTTCGACACTGTGGACGTGCTA,4.15
GACGGACTGGGTATCCGGACGTGCTAG,-0.286
TTAGAACTGAGTCTCGACTAGTGCTAG,0.146
TCAGCTTTCTTTAACTCACTGTGCTAG,0.287
GACGAACTGGGGTCTCGAGACGTGCTA,-0.304
TTAGGTTTCGGTTCCAGTTAGTGCTAG,12.3
TTAGGACTCGGGACTGGGTTAGTGCTA,0.316
TCATTTTTCACCTGCACACTGTGCTAG,0.891
TCATTACTAAAATTTCATACTGTGCTA,1.15
GTCGGTATCGGTCTCGGGACGTGCTAG,1.29
GTGGAAATCAGTATGTTCCCGTGCTAG,-0.0434
TCACCTATCTCCTCACAGACTGTGCTA,0.376
GATGTTTTGAGTTTTCCTTCGTGCTAG,0.665
TTAGGTATCCTACTGCCTTAGTGCTAG,-0.149
TTAGGTATCGGATTGGGTTAGTGCTAG,2.15
TCCTCTTTCACTGCTCCCCACGTGCTA,1.53
GAATGTTTTTCATTGTTTTTGTGCTAG,0.836
TTAGGACTGGGGACTGGGTTCGTGCTA,-0.269
GACGATCTCACTATCGAGACGTGCTAG,0.172
TTAGGTTTCGGACTGGGTGAGTGCTAG,3.91
GACGGTCTCGACTATCGGGACGTGCTA,0.273
TTAGGACTGAGACTGGGTTAGTGCTAG,-0.125
TCAGATTTACAAACTGTGACTGTGCTA,0.099
AAATTCTATTCTCTCAATTTGTGCTAG,1.75

# Sample 3
# Target: RNA binding protein fox-1 homolog 2, RRM domain, GST-SBP tag (RBFOX2, Homo sapiens, UniProt O43251-10, residues 100-194)
# Method: RNA Bind-n-Seq
# Form: RNA
# Matrix: in vitro
# Tested at: 365 nM
# Notes: natural RNA segment, single round, ends assumed
# Reference: no-protein control
# Direction: higher = stronger binding
# Constant ends, left off below: GGGAGUUCUACAGUCCGACGAUC … UGGAAUUCUCGGGUGCCAA
# Residues (chain): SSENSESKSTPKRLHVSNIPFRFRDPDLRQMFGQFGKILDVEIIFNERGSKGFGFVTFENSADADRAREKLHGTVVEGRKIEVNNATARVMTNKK
Sequence,RBNS enrichment (R)
CUCUGAAAAUCCCAUUCUUUGAUUUUCCUGGUAUUGUAAUUGGUUAUUGACAAUUGUCAUCAUGAAAUUACCCCUGAAUAAUCAGGUAAAUAAAGGAGUAUAUGAAUAGC,0.441
CUGAGCCCACAGAAAGAGCCAGGAAAGCAUUAACAGAAAAGCCUGUCAGGACAUGUCCACCACUGGUCAGAAACUCUUCUUCCCGUGGAACCAAAUGUCCCAGACUCUCU,0.293
AUUUGGUUUUACUUGUUGAUUUUGAGCCUUAUUGUCACAAAACAGCCUAGCUGGAAUAUUGAUGCCAUACUAUAUUUUGCAUGCUAUUUUCUUCCCUAGAGGCAUUGAGG,1.81
CUACACCGACAAACCGCAGACACGCAGGAUCUGCUCAGAGAUUGCAGAAGAGCGUGGCCUCUCUUAUAGGGAAGAUGUAAUUAUGGAUCAAAGAGUGCUAAGAAAAUUGC,0.528
UUUGUUUCAAUCUCUGACUAAAAAUACUUAAAUUUGGUUUGUUAAUUCUUAUUUUAGAAAUUAUAAUUUUAGUUUAUAUUAAUUUCGGUUAUAGCUUACUGAAGAAAUCU,1.26
CACCCUGGCUGAGGGCCAGCCUCAUCUGCAGAGCCCUGGAGGAGGCCCACCUAUGGACACAGCCCGAGAGAUGGGCGCAAGGGGUGCUGGGGGAGGCCUGCUAUCCUGCC,0.575
UUGUUCUGUGUGCAUGGAUUCCACACCUCUGCCGUAGGUAGAUCCGUCAGCGGGCAUUAUUACCGUGUCUUGUAAAGGGUCGGUUUUGUUAUGCAACAUGCAGAAUGCUG,1.16
AGAAUAGUGGGGCCCAGCCGAUGUGGUAGGUGAUAAAGAGGCAUCUUUUCUAGAGACACAUUGGACCAGAUGAGGAUCCGAAACGGCAGCCUUUACGUUCAUCACCUGCU,0.325
GACUGCUCCACUUACCCCAGUGCUGGGGACAAGUUUCUGUUGAAACUUUAGAUAGCAGAAUUAUUUGCAAUUUGUAGCAUAGAAAAGAUUUUUAAAUUUUUUUACAAAAG,0.843
AAGAGUGGGGUGAGGAAGAAGCCACAUGACUGUGGAGAGAAGUGGGACAGGCCUCAGUCCCUAGAGGUGUGUUUAAGCUUGUUGGGCAAGAGCUGGAUGCGGAUCUUCGG,0.814
AUUAACAUCUUAUGGUCUGAAAAUGUGGGUUUUUAUUUGACACGUUUAAAUAAAAUGUUUCUAACUAAUGUUUUGAUUUUUGUGUUCAAUAUUAAUACUUUUCAAUUGGG,0.538
ACCUUUUGCUGCCCAUCCUGUUACUUUUGAGUUUCUUUCAUUGUGGUUGUUCUUGGGUUCUUUUGUCUUGUCAGAGCUCUUCUAUAACCUCGCUCUAAUGGCUUAACAGU,4.4

# Sample 4
# Target: TAR DNA-binding protein 43, full length, His tag (TARDBP, Homo sapiens, UniProt Q13148, residues 1-414)
# Method: RNA Bind-n-Seq
# Form: RNA
# Matrix: in vitro
# Tested at: 20 nM
# Notes: 6-mer, flanks averaged, single round
# Added: 150 mM KCl
# Reference: input library
# Direction: higher = stronger binding
Sequence,6-mer enrichment (R)
GUUUCG,0.777
GCAGGU,1.48
UAUACC,0.582
UAGUGA,0.84
UAGUCC,0.604
UCAACC,0.57
GCGUCU,0.809
UGUCCU,0.63
CAUUCU,0.551
UCGAGG,1.6
CGUCCU,0.616
GAAUUG,0.856
CUAUGC,0.632
CCUCGU,0.593

# Sample 5
# Target: ABI1, truncated, D143A, DHFR fusion (Arabidopsis thaliana)
# Method: DHFR PCA, deep sequencing
# Matrix: yeast
# Notes: methotrexate growth selection, single substitutions
# Added: (+)-ABA 4.8 µM
# Reference: wild-type fitted maximum
# Direction: higher = stronger binding
# Starting sequence: PYL1, truncated, DHFR fusion (Arabidopsis thaliana); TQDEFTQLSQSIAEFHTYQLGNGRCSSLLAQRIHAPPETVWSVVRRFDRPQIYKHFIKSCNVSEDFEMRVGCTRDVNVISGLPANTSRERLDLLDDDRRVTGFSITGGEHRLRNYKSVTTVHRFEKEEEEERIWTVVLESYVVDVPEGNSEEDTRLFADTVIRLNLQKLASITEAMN
Change,relative binding score [%]
A84H,41.9
V62K,1.59
G23N,69.7
V44I,59
Q31G,-2.41
D95Q,3.72
D95T,-13.5
G71W,-8.98
T39H,53.7
R132D,104
T154G,-7.63
V121Q,-11.4
V161F,48.7
V40C,-4.76

# Excerpt of the above (sample 4):
Sequence,6-mer enrichment (R)
UAGUGA,0.84
CGUCCU,0.616
UAGUCC,0.604
GAAUUG,0.856
UCGAGG,1.6
GUUUCG,0.777
CCUCGU,0.593
CAUUCU,0.551
CUAUGC,0.632
GCAGGU,1.48
GCGUCU,0.809
UCAACC,0.57
UAUACC,0.582
